# Measurements pooled from the literature.
# Every numbered part comes from another study and shows a few of its results, in no order. Positions count from the first letter of the parent shown.

# Sample 1
# Target: Interferon regulatory factor 5, full length, phosphomimetic (IRF5, Homo sapiens, UniProt Q13568-2, residues 1-514, S451D/S453D/S456D/S462D)
# Method: protein-binding microarray
# Molecule type: double-stranded DNA, one strand shown
# Medium: in vitro
# Concentration: 940 nM top
# Setting: 60-bp whole probe
# With: salmon DNA 0.4 mg/ml
# Relative to: random background probes
# Reading: higher = stronger binding
# All sequences stand within: GCCTAGCAC … GTCTTGATTCGCTTGACGCTGCTG
Sequence,fitted relative affinity
TTAGGTTTCCTGCTGCTTTAGTGCTAG,0.702 z-score
TTAGGACTGGCTTTCGGTTAGTGCTAG,2 z-score
TTAGATTTCAGTAGCGATTAGTGCTAG,0.591 z-score
TTAGATTGCGGGTATCGATTAGTGCTA,3.22 z-score
GTCGAACTGAGTTTCGAGACGTGCTAG,5.39 z-score
GACGATTTCGGGTGTCGAGACGTGCTA,0.486 z-score
TTAGGACTGGGACTGGTTTAGTGCTAG,-0.517 z-score
TTGGATATCAGTATCGATTAGTGCTAG,4.7 z-score
CTGCTTGAAACTCTTACCCCGTGCTAG,0.371 z-score
GATTGGCTGACTTTGGAGATGTGCTAG,-0.361 z-score
GACGGTATCGACTATCGGGACGTGCTA,4.81 z-score
TGTGGGCGTAGGCCCGGAGCGTGCTAG,-1.06 z-score
ATGCCCCCCAAGAGGGGCGGGTGCTAG,-0.185 z-score
TTAGGTTTGGACACTGGGTTAGTGCTA,-0.0347 z-score
TCAGGTTTGAGTCTTCTACTGTGCTAG,-0.0351 z-score
TTAGGTCTCGGTTGCGGTTAGTGCTAG,4.98 z-score
TCACTGGTCACTCTCTGACTGTGCTAG,0.411 z-score
TCACTTATCCCTAATCTCACTGTGCTA,1.64 z-score
TTAGGACTGCTCCTCCTTTAGTGCTAG,-0.142 z-score
TTAAGCCCACTATCTAGCCCGTGCTAG,-0.248 z-score
TAAATTTTCACGGTGGGTTCGTGCTAG,0.0975 z-score
GACTAACTGAGTTTCGAGACGTGCTAG,3.43 z-score
ATAGGTCTCGGACTGGGTTAGTGCTAG,1.19 z-score

# Sample 2
# Target: RNA binding protein fox-1 homolog 2, RRM domain, GST-SBP tag (RBFOX2, Homo sapiens, UniProt O43251-10, residues 100-194)
# Method: RNA Bind-n-Seq
# Molecule type: RNA
# Medium: in vitro
# Concentration: 365 nM
# Setting: natural RNA segment, single round, ends assumed
# Relative to: no-protein control
# Reading: higher = stronger binding
# All sequences stand within: GGGAGUUCUACAGUCCGACGAUC … UGGAAUUCUCGGGUGCCAA
# Target sequence (chain): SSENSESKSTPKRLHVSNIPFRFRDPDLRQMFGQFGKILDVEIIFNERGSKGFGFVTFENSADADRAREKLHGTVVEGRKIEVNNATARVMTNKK
Sequence,RBNS enrichment (R)
UGUCUGUGUCACUCCCCUCCCUUCCAGACUGGGCCUGGCUGCUGGGAUCCCUCUCAUGCGGUGGGUCCCAGGGACACUAGAGCCCCUGGUCUGAGAGGGAGAAGCCUGGA,0.178
CCUCACUCUCUUUCAUUUAGCUGCCAGUCAUUUUAUGAAAAUGAAGUGCUUCUAAGUAUUUCCUUAAGGUCUGUGAAGAGUAUUUGCCCUGCGUCUUCAUUUCCGUGUGU,0.469
GCCAGCCAUGCAGGCUCCAUCAGGCACCGUGUCCCCAGGGGUGGGCAUGAACCAGUGCGCCACAUGUGAUUUUGAAAUAAACACCUCAACUAGCACUAAUUUUAUUUGCA,4.07
AAGUUCUUUCAGGGAGCUCUGCCAUGAGAGCAAACAGAGCAUAUCUAUCAUAUGCCACUUUGACGAACUAAGUUGGAGUUUUUGUUUCAAGUCAACUUGUGUGAUAAGUU,0.28
AGAAACAGAACUUUUAAAACUAUAGGCUGCUGUGUUGGGGCCAGAAAUAAGGUGACAAGUAAAGACUUUUAUAAUACCUACCUUCAAAAUUAGAAUCAGCAGCACUGUAC,0.565
UAAUAUGAGAAUCCAGUUCUCAUGACAAGAACCAGUUUAAAAACUGCUCGUUCUUAAAAAGGUAAAACUAAGAUUUAGAAACAAGGCAGGCCUUAGAGCCGAGGGAGACU,0.326
UAGGACCUAAGGUGGUCCUCAUAAACUCCUGGGGGAAGCUGGGAGCAACUUCCUGGGAAGCUAAUUUAUUUGUCUAAAGGGUGGUGUGGGCAUCACCACCCUUGUUUGAU,0.793
AAUUGCUUAGGAGGAGGAAGGGGAAAGUAUACUUAUGUUGGUGUGUAAGCAUGCAUGGAGGCCUCGAGGCACCACAACAAGGCCAGGUUCUUAGCACAUCCUCUGUUCUC,21.9
AGUCCUCAAUCCUGUGUCCCAGAGGUCCCUCUGGGCCACAACCCAACCCUUCUCACUCUCCUCAGUGCUAGCACUUUGUAUUUUUUGAUACUUUUAUACUUGUUUCUGCU,0.711
GUAGAAAGCAUUGAAAUGACUGUCAUUAACCACACAGUCCUGGAGGCAGAGAUGCAGUUACCUACCCUAGCUUUUGAUGGGUUCUCUUACCUGUAGUAGCCUUAUCCCUG,0.398
UGAUUCACUAAUUAGGGGGAAAAAAGGUCUUGGUGGAUGUCAGUGCUUACUCCCCAUGAAAUUAAAUUUUACUUCAUCCUUUGAGAAGCGAAUGGUGAAAGCUACUGAAA,0.429
GUGUCCCCAAGAGAGAGGCUGAAGGACUUUCUCGACAUGGUCCUGGCACUUCCCAGCCUGCUUUUGGGAAGGCUCCUAUGGCCCCUGUGGGCACAAUGAAAAUGUUUACA,7.7

# Sample 3
# Target: ABI1, truncated, D143A, DHFR fusion (Arabidopsis thaliana)
# Method: DHFR PCA, deep sequencing
# Medium: yeast
# Setting: methotrexate growth selection, single substitutions
# With: (+)-ABA 2500 µM
# Relative to: wild-type fitted maximum
# Reading: higher = stronger binding
# Starting sequence: PYL1, truncated, DHFR fusion (Arabidopsis thaliana); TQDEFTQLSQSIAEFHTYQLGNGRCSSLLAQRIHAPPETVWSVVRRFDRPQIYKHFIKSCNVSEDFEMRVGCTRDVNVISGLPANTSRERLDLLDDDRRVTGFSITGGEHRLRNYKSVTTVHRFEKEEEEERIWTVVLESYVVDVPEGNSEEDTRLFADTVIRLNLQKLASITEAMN
Change,relative binding score
I57W,-1.73%
L112W,31.3%
C25R,64%
F47V,27.3%
V70R,89%
V145G,40.8%
A84K,-0.00551%
G148Q,92.1%
A175Y,94.1%
T6V,106%
E89Y,3.55%
G107T,94.3%
Q167A,97.1%
L82A,86.7%
K168F,86.3%

# Sample 4
# Target: CCNB2, cyclin fold, Cln2 fusion (human)
# Method: yeast growth competition, sequencing
# Medium: yeast
# Setting: weak parent motif
# Relative to: not given
# Reading: higher = stronger binding
# Starting sequence: FZR1 docking peptide (human); QDYERRLLRQIVI; partner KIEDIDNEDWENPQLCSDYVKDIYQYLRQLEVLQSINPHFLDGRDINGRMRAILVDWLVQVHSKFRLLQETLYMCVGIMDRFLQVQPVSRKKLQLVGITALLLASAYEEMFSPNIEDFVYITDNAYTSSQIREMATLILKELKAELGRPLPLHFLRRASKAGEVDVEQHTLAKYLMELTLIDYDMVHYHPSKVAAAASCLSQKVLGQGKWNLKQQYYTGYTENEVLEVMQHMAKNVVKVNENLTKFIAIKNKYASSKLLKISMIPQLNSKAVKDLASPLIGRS
Change,normalised enrichment score
QDAERRLLRQIVI [Y3A],0.436
QDYEARLLRQIVI [R5A],0.265
QDYERRLLRQIVA [I13A],0.327
QDYERRLLAQIVI [R9A],-0.452
QDYERALLRQIVI [R6A],0.514
QAYERRLLRQIVI [D2A],0.203
QDYEKRLLRQIVI [R5K],0.441

# Sample 5
# Target: HLF, bZIP domain (human)
# Method: DHFR protein complementation
# Medium: yeast
# Setting: single substitutions, most at no-binding floor
# Relative to: wild-type JUN-FOS pair
# Reading: higher = stronger binding
# Starting sequence: JUN, bZIP domain (human); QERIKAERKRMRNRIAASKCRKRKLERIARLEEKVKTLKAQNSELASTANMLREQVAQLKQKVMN; partner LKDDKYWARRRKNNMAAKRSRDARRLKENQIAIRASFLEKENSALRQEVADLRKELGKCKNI
Change,binding fitness [natural log]
A49N,-1.46
S43M,-1.51
N42A,-1.49
S47N,-1.46
L59H,-1.49
Q55I,-1.21
L52Q,-1.49
L45Y,-1.53
A46F,-1.25
T37M,-0.856
A46Y,-1.46
I28S,-1.47
K36L,-1.39
E33R,-1.3
S47Y,-1.42
L52D,-1.47
E33Q,-1.42
L38W,-1.49
Q41L,-1.33

# Sample 6
# Target: PABPC1L2, full length, GST fusion (mouse, UniProt A0ABA7IW68)
# Method: RNAcompete
# Molecule type: RNA
# Medium: in vitro
# Concentration: 20 nM
# Setting: 7-mer, probes averaged, single round
# Relative to: mean of 7-mers
# Reading: higher = stronger binding
# Residues (chain): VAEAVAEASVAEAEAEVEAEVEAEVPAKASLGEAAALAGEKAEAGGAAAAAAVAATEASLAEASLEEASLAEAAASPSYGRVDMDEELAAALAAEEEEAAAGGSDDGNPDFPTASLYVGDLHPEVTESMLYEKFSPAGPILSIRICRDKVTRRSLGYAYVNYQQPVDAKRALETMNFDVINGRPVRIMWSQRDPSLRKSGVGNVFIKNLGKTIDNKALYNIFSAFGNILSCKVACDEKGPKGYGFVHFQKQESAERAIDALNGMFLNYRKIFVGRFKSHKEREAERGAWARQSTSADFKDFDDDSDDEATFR
Sequence,7-mer Z-score
GACCGAC,0.0424
UACGGCG,-0.0446
AGGUGCU,0.273
UGCUCUC,-0.443
CGGGGUG,-0.012
UAUAAGG,0.173
ACCGGGU,-0.0536
CCUUAAA,0.773
AAUAGAA,1.35
CCGACUC,-0.32
CUGCCUG,-0.306
AACGAAU,0.216
GUCUUUG,-0.369
ACAGGGA,0.49
GUAGGCG,-0.0192
UACAGCC,-0.237
GUUAUCA,-0.224
UCAGUCA,-0.251
UCAUCUG,-0.22

# Other studies, line by line
Molecule,target,assay,test system,conditions,scale,quantity,value
"PhoQ, residues 284 288 289 292 302 303 SSYNSA","PhoP, residues 12 14 15 18 19 LHHVQ (Escherichia coli, UniProt P23836)","Sort-seq, item: YFP reporter",E. coli,"PhoQ-PhoP variant library, with: 10 µM Mg2+","relative to: high Mg2+ state, higher = stronger signaling",fold induction,17.7

# Repeated from above (sample 1):
Sequence,fitted relative affinity
TTAGGTTTCCTGCTGCTTTAGTGCTAG,0.702 z-score
TTGGATATCAGTATCGATTAGTGCTAG,4.7 z-score
TTAGGTTTGGACACTGGGTTAGTGCTA,-0.0347 z-score
GACTAACTGAGTTTCGAGACGTGCTAG,3.43 z-score
GATTGGCTGACTTTGGAGATGTGCTAG,-0.361 z-score
TTAAGCCCACTATCTAGCCCGTGCTAG,-0.248 z-score
TTAGGACTGCTCCTCCTTTAGTGCTAG,-0.142 z-score
TTAGATTTCAGTAGCGATTAGTGCTAG,0.591 z-score
TCACTTATCCCTAATCTCACTGTGCTA,1.64 z-score
ATAGGTCTCGGACTGGGTTAGTGCTAG,1.19 z-score
TGTGGGCGTAGGCCCGGAGCGTGCTAG,-1.06 z-score
ATGCCCCCCAAGAGGGGCGGGTGCTAG,-0.185 z-score
GACGGTATCGACTATCGGGACGTGCTA,4.81 z-score
GTCGAACTGAGTTTCGAGACGTGCTAG,5.39 z-score
GACGATTTCGGGTGTCGAGACGTGCTA,0.486 z-score
